Measurements gathered from unrelated publications.
Lines come from different studies, so protocols differ.
UniProt Q9UBN7, sequence (whole entry, looked up): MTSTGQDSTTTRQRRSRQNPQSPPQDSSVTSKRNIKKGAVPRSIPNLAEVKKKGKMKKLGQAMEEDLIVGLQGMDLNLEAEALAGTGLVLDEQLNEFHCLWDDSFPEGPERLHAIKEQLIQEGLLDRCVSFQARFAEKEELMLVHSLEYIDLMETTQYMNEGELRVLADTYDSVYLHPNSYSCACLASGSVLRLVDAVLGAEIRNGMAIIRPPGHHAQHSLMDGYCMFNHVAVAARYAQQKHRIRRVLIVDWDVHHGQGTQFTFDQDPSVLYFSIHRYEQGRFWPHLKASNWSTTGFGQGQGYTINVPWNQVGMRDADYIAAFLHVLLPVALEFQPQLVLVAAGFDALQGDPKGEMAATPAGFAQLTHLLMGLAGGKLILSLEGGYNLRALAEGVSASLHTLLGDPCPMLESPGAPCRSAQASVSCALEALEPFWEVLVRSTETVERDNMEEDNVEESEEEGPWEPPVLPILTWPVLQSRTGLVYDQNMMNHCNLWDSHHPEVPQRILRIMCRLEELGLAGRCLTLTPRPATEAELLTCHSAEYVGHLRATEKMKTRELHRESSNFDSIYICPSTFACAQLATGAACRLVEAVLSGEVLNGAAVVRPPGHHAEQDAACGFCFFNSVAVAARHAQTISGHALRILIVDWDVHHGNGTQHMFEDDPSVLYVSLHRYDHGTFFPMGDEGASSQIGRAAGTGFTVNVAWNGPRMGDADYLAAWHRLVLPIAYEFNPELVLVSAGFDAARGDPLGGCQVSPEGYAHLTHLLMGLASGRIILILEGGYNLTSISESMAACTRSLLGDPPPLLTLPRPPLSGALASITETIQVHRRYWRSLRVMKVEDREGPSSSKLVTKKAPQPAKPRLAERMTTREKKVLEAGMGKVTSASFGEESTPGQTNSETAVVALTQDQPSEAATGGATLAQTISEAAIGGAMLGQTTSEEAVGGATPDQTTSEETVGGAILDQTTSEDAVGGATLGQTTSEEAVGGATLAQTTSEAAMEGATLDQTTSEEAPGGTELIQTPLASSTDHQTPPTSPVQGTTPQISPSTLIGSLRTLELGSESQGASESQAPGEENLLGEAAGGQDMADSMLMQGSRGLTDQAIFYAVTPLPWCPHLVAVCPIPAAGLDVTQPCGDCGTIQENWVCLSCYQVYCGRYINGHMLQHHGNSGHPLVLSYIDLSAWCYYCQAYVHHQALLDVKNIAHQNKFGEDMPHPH
UniProt P06239, sequence (whole entry, looked up): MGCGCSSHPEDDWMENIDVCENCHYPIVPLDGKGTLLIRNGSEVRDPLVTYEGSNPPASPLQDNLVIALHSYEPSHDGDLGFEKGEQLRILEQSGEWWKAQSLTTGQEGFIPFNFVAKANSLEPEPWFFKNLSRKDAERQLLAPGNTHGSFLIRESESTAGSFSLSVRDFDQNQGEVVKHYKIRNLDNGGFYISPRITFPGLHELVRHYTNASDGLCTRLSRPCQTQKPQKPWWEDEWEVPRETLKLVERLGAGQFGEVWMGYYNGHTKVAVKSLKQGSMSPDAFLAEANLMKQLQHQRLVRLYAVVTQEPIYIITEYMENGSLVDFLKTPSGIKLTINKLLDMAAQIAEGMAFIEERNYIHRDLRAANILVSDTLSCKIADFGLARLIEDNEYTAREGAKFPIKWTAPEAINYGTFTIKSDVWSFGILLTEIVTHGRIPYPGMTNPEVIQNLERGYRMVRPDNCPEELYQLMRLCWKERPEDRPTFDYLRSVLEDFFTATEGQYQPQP
UniProt P29322, sequence (whole entry, looked up): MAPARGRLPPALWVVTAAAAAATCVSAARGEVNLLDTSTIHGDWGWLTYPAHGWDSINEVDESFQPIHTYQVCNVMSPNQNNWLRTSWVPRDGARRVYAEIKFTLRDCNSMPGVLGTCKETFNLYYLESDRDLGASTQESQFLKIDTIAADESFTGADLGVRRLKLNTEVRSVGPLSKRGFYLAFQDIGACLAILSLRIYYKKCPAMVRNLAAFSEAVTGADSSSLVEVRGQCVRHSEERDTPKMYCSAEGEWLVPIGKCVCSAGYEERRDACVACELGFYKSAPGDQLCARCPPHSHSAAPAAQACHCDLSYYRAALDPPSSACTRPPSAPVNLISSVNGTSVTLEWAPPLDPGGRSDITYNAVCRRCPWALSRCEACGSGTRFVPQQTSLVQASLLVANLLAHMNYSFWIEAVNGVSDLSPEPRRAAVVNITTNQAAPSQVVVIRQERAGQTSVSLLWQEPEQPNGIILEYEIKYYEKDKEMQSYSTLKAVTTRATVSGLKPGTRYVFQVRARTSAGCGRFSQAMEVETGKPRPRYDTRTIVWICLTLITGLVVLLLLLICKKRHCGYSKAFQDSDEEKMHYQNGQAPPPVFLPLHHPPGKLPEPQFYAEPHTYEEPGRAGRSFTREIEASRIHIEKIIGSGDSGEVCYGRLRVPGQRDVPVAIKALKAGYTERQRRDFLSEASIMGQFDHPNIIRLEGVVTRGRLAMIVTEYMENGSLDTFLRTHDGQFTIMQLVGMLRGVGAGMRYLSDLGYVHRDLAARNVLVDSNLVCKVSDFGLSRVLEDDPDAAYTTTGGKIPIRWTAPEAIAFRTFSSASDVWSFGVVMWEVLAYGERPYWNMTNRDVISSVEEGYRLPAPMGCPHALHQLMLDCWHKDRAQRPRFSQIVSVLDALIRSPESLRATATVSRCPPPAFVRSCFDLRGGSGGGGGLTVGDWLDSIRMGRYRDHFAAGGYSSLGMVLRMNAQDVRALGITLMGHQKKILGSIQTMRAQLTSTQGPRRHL

`Cc1cccc2cc[nH]c12` gave an EC50 of 355 µM (Cryptosporidium parvum; parasite growth; HCT-8; 24 h, intracellular).
`C=CC(=O)N1CCC(COCC(=O)N2CCN(c3nc(-c4cnc(N)nc4C(F)F)nc(N4CCOC[C@@H]4C)n3)CC2)CC1` has a remaining binding of 77% (Tyrosine-protein kinase ABL1, non-phosphorylated (ABL1, Homo sapiens, UniProt P00519, T315I); binding, competition with immobilised ligand; 1 µM).
`O=C(NCc1cc(O)c(O)c(Br)c1)c1nccs1` has an EC50 of 10.6 µM (Porcine epidemic diarrhea virus; viral replication, inhibitor, qPCR; Vero C1008).
`CN1CCN(c2ccc(-c3ccc4nncc(Nc5cnccn5)c4c3)cc2)CC1` gave an EC50 of greater than 10 µM (Trypanosoma cruzi; parasite growth; C2C12; intracellular, amastigote).
`Cc1cccc2[nH]ccc12` has an EC50 of 231 µM (Cryptosporidium parvum; parasite growth; HCT-8; 24 h, intracellular).
With `CCOC(=O)c1c(NCC(C)C)c2c([nH]c1=O)CCC2` the EC50 was 0.54 µM (Human immunodeficiency virus 1; viral replication, inhibitor; IIIB; 72 h).
With `COc1cccc2cc[nH]c12` the EC50 was 304 µM (Cryptosporidium parvum; parasite growth; HCT-8; 24 h, intracellular).
`COc1cc(-c2cncc3c2CN(C)Cc2cc(N4CCNCC4)ccc2-3)cc(OC)c1OC` gave a remaining activity of 49% (Tyrosine-protein kinase Lck (LCK, Homo sapiens, UniProt P06239); enzyme activity, inhibitor; 1 µM).
`CCOC(=O)c1c(NCCCO)c2c([nH]c1=O)CCC2` gave an EC50 of greater than 100 µM (Human immunodeficiency virus 1; viral replication, inhibitor; IIIB; 72 h).
With `Cc1cccc(Oc2ccc(NC(=O)CNc3ccccc3N3CCCC3=O)cc2)c1` the EC50 was greater than 10 µM (Plasmodium falciparum; parasite growth; 3D7; 72 h, blood stage).
`CCOC(=O)c1c(NCCC2CC2)c2c([nH]c1=O)CCC2` gave an EC50 of 20.3 µM (Human immunodeficiency virus 1; viral replication, inhibitor; IIIB; 72 h).
`O=C(CNc1ccccc1N1CCCC1=O)Nc1ccc(Oc2cccc(Cl)c2)cc1` gave an EC50 of greater than 10 µM (Plasmodium falciparum; parasite growth; 3D7; 72 h, blood stage).
With `CCOC(=O)c1c(NC)c2c([nH]c1=O)CCC2` the EC50 was greater than 100 µM (Human immunodeficiency virus 1; viral replication, inhibitor; IIIB; 72 h).
With `Cc1ccc(Oc2ccc(NC(=O)CNc3ccccc3-n3ccccc3=O)cc2)cc1` the EC50 was greater than 10 µM (Plasmodium falciparum; parasite growth; 3D7; 72 h, blood stage).
For `CCCCCNc1c2c([nH]c(=O)c1C(=O)OCC)CCC2`, the EC50 was 10.7 µM (Human immunodeficiency virus 1; viral replication, inhibitor; IIIB; 72 h).
`N#Cc1cccc2[nH]ccc12` gave an EC50 of 195 µM (Cryptosporidium parvum; parasite growth; HCT-8; 24 h, intracellular).
`COc1cccc(OS(=O)(=O)Oc2cccc(C(=O)NO)c2)c1` gave a Ki of 0.041 µM (Protein deacetylase HDAC6 (HDAC6, Homo sapiens, UniProt Q9UBN7); enzyme activity, inhibitor, fluorescence).
`CC(C)N(c1ccc(Cl)c(F)c1)c1ccc(NC(=O)CN(C)c2ccccc2N2CCCC2=O)c(F)c1` gave an EC50 of 0.002 µM (Plasmodium falciparum; parasite growth; 3D7; 72 h, blood stage).
`COc1ccc2cc[nH]c2c1` gave an EC50 of 349 µM (Cryptosporidium parvum; parasite growth; HCT-8; 24 h, intracellular).
`CCN(CC(=O)Nc1ccc(Oc2ccc(C)cc2)cc1)c1ccccc1N1CCCC1=O` gave an EC50 of 1.16 µM (Plasmodium falciparum; parasite growth; 3D7; 72 h, blood stage).
The remaining activity of `CNc1ncc2c(/C=C/C(=O)N3CCC(OC)CC3)nn(Cc3cccc(C(F)(F)F)c3)c2n1` is reported as 104% (Ephrin type-A receptor 8 (EPHA8, Homo sapiens, UniProt P29322); enzyme activity, inhibitor, radiometric; 1 µM).
With `O=C(CNc1ccccc1N1CCCC1=O)Nc1ccc(Oc2ccc(F)cc2)cc1` the EC50 was 3.08 µM (Plasmodium falciparum; parasite growth; 3D7; 72 h, blood stage).
For `N#Cc1ccc2cc[nH]c2c1`, the EC50 was 144 µM (Cryptosporidium parvum; parasite growth; HCT-8; 24 h, intracellular).

A few entries again:
`C=CC(=O)N1CCC(COCC(=O)N2CCN(c3nc(-c4cnc(N)nc4C(F)F)nc(N4CCOC[C@@H]4C)n3)CC2)CC1` has a remaining binding of 77% (Tyrosine-protein kinase ABL1, non-phosphorylated (ABL1, Homo sapiens, UniProt P00519, T315I); binding, competition with immobilised ligand; 1 µM).
`Cc1cccc2cc[nH]c12` gave an EC50 of 355 µM (Cryptosporidium parvum; parasite growth; HCT-8; 24 h, intracellular).
For `CCCCCNc1c2c([nH]c(=O)c1C(=O)OCC)CCC2`, the EC50 was 10.7 µM (Human immunodeficiency virus 1; viral replication, inhibitor; IIIB; 72 h).
